Measurements of several laboratories.
A part holds a random share of what one study measured. Substitutions count along the parent as printed.

Series 1
Target: Sal-like protein 4, full length isoform B (SALL4, Homo sapiens, UniProt Q9UJQ4-2, residues 1-616)
Technique: universal PBM
Molecule type: double-stranded DNA, one strand shown
Medium: in vitro
Concentration: not given
Setting: 8-mer, flanks averaged, mean of replicates
Reading: higher = stronger binding
Measurement: E-score
Strand = GTGGATAA; value = 0.1
Strand = ACCAGGCA; value = -0.203
Strand = ACTGTCAT; value = 0.211
Strand = GTCACCAA; value = -0.0299
Strand = CGTATTAC; value = 0.174
Strand = CAACGCAA; value = -0.0645
Strand = AAACTGCC; value = -0.0856
Strand = GATACACC; value = 0.0909
Strand = AATGCATG; value = 0.125
Strand = CCCACCAC; value = -0.183
Strand = AAAGATAA; value = 0.343
Strand = TTCAGAAA; value = 0.0957
Strand = ATTCGTAG; value = 0.0508
Strand = AGGCCTAA; value = -0.0324
Strand = CGCAGTAG; value = -0.174
Strand = CGTACAAA; value = 0.126
Strand = ACCAGGAC; value = -0.0915
Strand = GAGTTTGC; value = -0.152

Series 2
Target: CCNB2, cyclin fold, Cln2 fusion (human)
Technique: yeast growth competition, sequencing
Medium: yeast
Setting: weak parent motif
Relative to: not given
Reading: higher = stronger binding
Measurement: normalised enrichment score
Starting sequence: DNAH7 docking peptide (human); HELFQRLDFDNDG
Variant = HELAQRLDFDNDG [F4A]; value = 1.51
Variant = HELFQALDFDNDG [R6A]; value = -0.0504
Variant = HELFQRLDADNDG [F9A]; value = -0.298
Variant = HELFQRLDFDNDA [G13A]; value = -0.0494
Variant = HEAFQRLDFDNDG [L3A]; value = -0.568
Variant = HELFQRLDFDNAG [D12A]; value = 0.303

Series 3
Target: RNA binding protein fox-1 homolog 2, RRM domain, GST-SBP tag (RBFOX2, Homo sapiens, UniProt O43251-10, residues 100-194)
Technique: RNA Bind-n-Seq
Molecule type: RNA
Medium: in vitro
Concentration: 365 nM
Setting: natural RNA segment, single round, ends assumed
Relative to: no-protein control
Reading: higher = stronger binding
Measurement: RBNS enrichment (R)
Residues (chain): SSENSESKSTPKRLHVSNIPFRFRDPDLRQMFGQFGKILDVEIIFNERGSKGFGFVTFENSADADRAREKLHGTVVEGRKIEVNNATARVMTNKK
Strand = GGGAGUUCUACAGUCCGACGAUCGCCCUCAGAGUGCUCAUAUGGGGAGGGGGAUAUCUACUGUGGCUUCCAAAAGUCCCCACUAGUUGGUGUACCUGUCUAUUUCUCUGGAUACUGCUAGCCAAAGGGCUCGGUGGAAUUCUCGGGUGCCAA; value = 2.73
Strand = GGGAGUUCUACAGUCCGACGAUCUGGCUGGACCAUGUAUGAUGAUGAAAGCCUGUGUCUUUGAGGGAUUCUACCCUGAACAUACCUCACAGAUCCUCCCUGUCAUGCCACAUUUCACUGAUUGGAAUGUGGAAUGGAAUUCUCGGGUGCCAA; value = 0.317
Strand = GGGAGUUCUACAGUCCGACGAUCAGCAUUUGACUUCCCCAUCAGUACAUUUGUUCAUUUGCUUUCUCUGUGAAACGCCAUGAUUGUCUAAACAAGUCUCCCCUCUGCCCUGAUCCCUUUGUACCAAGUCAAUGUGGAAUUCUCGGGUGCCAA; value = 0.481
Strand = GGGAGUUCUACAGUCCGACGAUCAAAGAAAGUGGCUGGAGGUGUGUUUGGUGUGAGAGGUGAGCAAUAAAGUACCUGCACAUUCUCUCCUGCUCUGGGAGUUUUCUUUUAGCUAUUUUCAUACCAGAUUGUGCUGGAAUUCUCGGGUGCCAA; value = 0.562
Strand = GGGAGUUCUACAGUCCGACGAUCAUUUUAAAAAAUGGUCACGUUUGGUGCUUCUCAGAUUUCUGAGGAAAUUGCUUUGUAUUGUAUAUUACAAUGAUCACCGACUGAAAAUAUUGUUUUACAAUAGUUCUGUGUGGAAUUCUCGGGUGCCAA; value = 0.369
Strand = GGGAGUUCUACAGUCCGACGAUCGGUUUUGGUCUGGGAGGGUUUUGUUUGUUGGGUUUUUUUAAAAAAAAAUGACAAUGAAGAGACACUUUGACAUUUCCUACCUUUUGAGGACUUGAUCCUUCUCCAGGAAGUGGAAUUCUCGGGUGCCAA; value = 0.32
Strand = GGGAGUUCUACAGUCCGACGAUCGGAACGGGAUUAAGUUUAAAACUUUCCCGUUUCUUUUUUGUUCGGUUGGUUUGGGUUUUUUUUUUUCUUUUUCUACUUUUAAAGUAUUUAAAUGCAAUUAUUUUUCUGCCUGGAAUUCUCGGGUGCCAA; value = 0.849
Strand = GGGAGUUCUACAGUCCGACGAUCCAAAAUAUACCAUAGGCUAAAACUAAGGCUUUCACUCUAGAAUGCAAAGCUGUUUUGCAGCUGUUUUCCCUUAAAGAUGUCCUGUUGCUUUAGUGAUAUUUAGACCCCUCUGGAAUUCUCGGGUGCCAA; value = 0.33
Strand = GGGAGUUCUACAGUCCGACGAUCAGUUGUGGUACACGUCCCCGGUGCUGGGUUGGCCGUGACUCGGGGGCGGGGCGAUCGGGUCUCAGCCCCUGCCUUCCCCAGUCUCUGGGUCACCCGAAUUUUCCCACCCCUGGAAUUCUCGGGUGCCAA; value = 0.345
Strand = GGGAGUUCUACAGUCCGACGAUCAGAUGCUGCCCACAAAUGCUCCUGCUAUGUAACAGGUGCUCAAUAAAUGUAAAUGUAUAAGCACUCGAAUCAGCUUGCUGACAGGACCUUAUGGUCCAGGGUAGCUGGAGUGGAAUUCUCGGGUGCCAA; value = 0.449
Strand = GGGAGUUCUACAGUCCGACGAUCAUUUAGGAAUUCAAUUUUUGUUUCAGUGACCAAUGUCAAGUUGCAGGCUUUGUGUGUUGCAUAUUUAAUAUUUCUACUACCACCGUAUGUCAACUGGGUAAAGCCUUCCAUGGAAUUCUCGGGUGCCAA; value = 0.486
Strand = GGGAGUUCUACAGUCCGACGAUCGGCUGAGGUCGUGCCCUGCUGGGCUGCCCUCCAAUGUGCCUCACGCAAUAAAGAAUUCUCCCUCUGCGCUUUCCCAUCAGCUCUGUAUCUUGGGAUGGGUCAGCCAUCUUUGGAAUUCUCGGGUGCCAA; value = 1.3

Series 4
Target: ABI1, truncated, D143A, DHFR fusion (Arabidopsis thaliana)
Technique: DHFR PCA, deep sequencing
Medium: yeast
Setting: methotrexate growth selection, single substitutions
Added: (+)-ABA 0.11 µM
Relative to: wild-type fitted maximum
Reading: higher = stronger binding
Measurement: relative binding score
Starting sequence: PYL1, truncated, DHFR fusion (Arabidopsis thaliana); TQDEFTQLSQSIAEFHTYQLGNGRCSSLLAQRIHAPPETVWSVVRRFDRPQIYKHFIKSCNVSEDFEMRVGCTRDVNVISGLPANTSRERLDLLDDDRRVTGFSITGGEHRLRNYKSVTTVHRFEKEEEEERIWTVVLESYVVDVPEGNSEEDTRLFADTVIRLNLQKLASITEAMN; partner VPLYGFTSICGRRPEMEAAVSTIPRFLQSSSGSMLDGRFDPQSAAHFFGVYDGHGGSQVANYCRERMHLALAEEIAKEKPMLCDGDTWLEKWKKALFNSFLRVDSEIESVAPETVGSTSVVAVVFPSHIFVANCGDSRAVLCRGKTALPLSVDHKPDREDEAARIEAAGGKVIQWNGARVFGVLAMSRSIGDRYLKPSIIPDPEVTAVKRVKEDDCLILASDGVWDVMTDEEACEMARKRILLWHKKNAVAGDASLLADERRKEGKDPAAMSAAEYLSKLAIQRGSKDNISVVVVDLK
Variant = T86D; value = 6.21%
Variant = E89Y; value = 5.21%
Variant = E174N; value = 3.35%
Variant = A158C; value = 79.5%
Variant = G148Q; value = -2.15%
Variant = A84K; value = 11.1%
Variant = K168F; value = 9.06%
Variant = I57W; value = 6.52%
Variant = G107T; value = -1.05%
Variant = Q167A; value = 36.5%
Variant = L112W; value = 23.1%
Variant = S171D; value = 45.5%
Variant = F56E; value = 1.66%
Variant = L82A; value = 11.7%
Variant = A170V; value = -2.35%

Series 5
Target: Histone acetyltransferase KAT6A, both winged helices, GST fusion (KAT6A, Homo sapiens, UniProt Q92794, residues 1-181)
Technique: protein binding microarray
Molecule type: double-stranded DNA, one strand shown
Medium: in vitro
Concentration: not given
Setting: 8-mer, flanks averaged, mean of 2 arrays, mostly near background
Relative to: not given
Reading: higher = stronger binding
Measurement: E-score
Residues (chain): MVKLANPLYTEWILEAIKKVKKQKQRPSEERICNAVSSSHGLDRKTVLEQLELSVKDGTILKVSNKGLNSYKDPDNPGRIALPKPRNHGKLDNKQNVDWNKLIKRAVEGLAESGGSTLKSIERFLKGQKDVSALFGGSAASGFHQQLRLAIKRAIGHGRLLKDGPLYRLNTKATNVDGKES
Strand = ACCGTGAA; value = 0.111
Strand = CATGCTCG; value = -0.0169
Strand = ATAACAAA; value = -0.00217
Strand = ACCGGGTC; value = 0.223
Strand = AACGATTC; value = 0.0491
Strand = ATCCTCGG; value = -0.0637
Strand = AAGTACCT; value = -0.159
Strand = AGAAGACA; value = -0.213
Strand = GTGCACCA; value = -0.218
Strand = GTTAAGCA; value = 0.0332
Strand = AGGATGAA; value = -0.253
Strand = CCGGAAGA; value = 0.162
Strand = CCCCTAGC; value = -0.22
Strand = CAACAGAC; value = 0.0251
Strand = AACAAGGA; value = -0.00233
Strand = CCGTAATA; value = 0.166
Strand = CTAGCTCA; value = -0.228
Strand = AGGGGTGG; value = -0.21
Strand = GTCGTCAA; value = -0.00477
Strand = TGGGTACA; value = -0.0643
Strand = AGTGTTTC; value = -0.0649
Strand = AGCACGCT; value = -0.0184
Strand = GGCACGGA; value = 0.183

Series 6
Target: PABPC1L2, full length, GST fusion (mouse, UniProt A0ABA7IW68)
Technique: RNAcompete
Molecule type: RNA
Medium: in vitro
Concentration: 20 nM
Setting: 7-mer, probes averaged, single round
Relative to: mean of 7-mers
Reading: higher = stronger binding
Measurement: 7-mer Z-score
Construct (chain): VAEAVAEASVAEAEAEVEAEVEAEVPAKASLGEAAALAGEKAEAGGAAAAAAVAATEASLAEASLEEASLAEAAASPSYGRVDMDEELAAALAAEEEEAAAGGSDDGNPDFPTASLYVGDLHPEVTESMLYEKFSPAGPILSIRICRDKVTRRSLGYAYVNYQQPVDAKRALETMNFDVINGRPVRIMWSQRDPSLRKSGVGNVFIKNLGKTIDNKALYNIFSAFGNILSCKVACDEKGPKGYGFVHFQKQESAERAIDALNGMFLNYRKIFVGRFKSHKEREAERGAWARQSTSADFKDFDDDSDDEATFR
Strand = CCGACUC; value = -0.32
Strand = GCAGGCA; value = 0.314
Strand = CGAUCAU; value = -0.0899
Strand = UGAGGCC; value = 0.00436
Strand = CGUACAG; value = -0.19
Strand = UUUUUCC; value = -0.269
Strand = CGCUAAU; value = -0.246
Strand = UAAGGCU; value = 0.00254
Strand = AACAUUC; value = 0.258
Strand = AACGAAU; value = 0.216
Strand = UAGUCCG; value = -0.383
Strand = CGUUUUU; value = -0.416
Strand = GUCUUUG; value = -0.369

Other studies, line by line
Substance = PhoQ, residues 284 288 289 292 302 303 ASTSDA; target = PhoP, residues 12 14 15 18 19 LHHVQ (Escherichia coli, UniProt P23836); test = Sort-seq, measured: YFP reporter; test system = E. coli; conditions = PhoQ-PhoP variant library, added: 10 µM Mg2+; scale = relative to: high Mg2+ state, higher = stronger signaling; measurement = fold induction; value = 20

Excerpt of the above (series 1):
Strand = GTCACCAA; value = -0.0299
Strand = CGTATTAC; value = 0.174
Strand = CAACGCAA; value = -0.0645
Strand = AAACTGCC; value = -0.0856
Strand = GATACACC; value = 0.0909
Strand = AATGCATG; value = 0.125
Strand = CCCACCAC; value = -0.183
Strand = AAAGATAA; value = 0.343
Strand = TTCAGAAA; value = 0.0957
Strand = ATTCGTAG; value = 0.0508
Strand = AGGCCTAA; value = -0.0324
Strand = CGCAGTAG; value = -0.174
Strand = CGTACAAA; value = 0.126
Strand = ACCAGGAC; value = -0.0915
Strand = GAGTTTGC; value = -0.152
